# Published values gathered from unrelated publications.
# Parts stem from different laboratories: compare values within a part only.

# Block 1 — method: protein-binding microarray; form: double-stranded DNA, one strand shown; medium: in vitro; concentration: 2200 nM top; setting: 60-bp whole probe; with: salmon DNA 0.4 mg/ml; baseline: random background probes; direction: higher = stronger binding
# Target: Interferon regulatory factor 7, full length, phosphomimetic (IRF7, Homo sapiens, UniProt Q92985, residues 1-503, S471D/S472D/S475D/S476D/S477D/S483D/S484D/S487D)
# Chain of UniProt Q92985 (whole entry, unmodified, looked up): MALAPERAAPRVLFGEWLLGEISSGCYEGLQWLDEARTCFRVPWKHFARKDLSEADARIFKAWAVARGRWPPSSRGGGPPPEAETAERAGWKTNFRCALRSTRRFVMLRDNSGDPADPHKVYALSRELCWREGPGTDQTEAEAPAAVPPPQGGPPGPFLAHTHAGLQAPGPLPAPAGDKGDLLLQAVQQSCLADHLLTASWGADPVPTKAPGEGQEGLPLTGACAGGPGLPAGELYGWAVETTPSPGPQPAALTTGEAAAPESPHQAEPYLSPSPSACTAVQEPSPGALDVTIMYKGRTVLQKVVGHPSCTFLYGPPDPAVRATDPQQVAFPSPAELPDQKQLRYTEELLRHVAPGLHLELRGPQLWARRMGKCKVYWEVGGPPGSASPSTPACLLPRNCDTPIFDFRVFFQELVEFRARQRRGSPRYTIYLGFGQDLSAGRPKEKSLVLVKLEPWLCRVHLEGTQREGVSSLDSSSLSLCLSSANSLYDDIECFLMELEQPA
Sequence,fitted relative affinity [z-score]
GCCTAGCACGACGGTCGCCTTCTCCTGACGTGCTAGGTCTTGATTCGCTTGACGCTGCTG,0.382
GCCTAGCACTTACGACTGGGGTTTCGGTTAGTGCTAGTCTTGATTCGCTTGACGCTGCTG,3.7
GCCTAGCACTTAGGTTTCGGGACGGGGTTAGTGCTAGTCTTGATTCGCTTGACGCTGCTG,4.24
GCCTAGCACCATTCTCTGCTTCTGTATGGGTGCTAGGTCTTGATTCGCTTGACGCTGCTG,2.1

# Block 2 — method: competition protein-binding microarray; form: double-stranded DNA, one strand shown; medium: in vitro; concentration: 2 µM; with: Pho4 competitor, 0.05 µM; direction: higher = stronger binding
# Target: Centromere-binding protein 1, full length, His-tagged (CBF1, Saccharomyces cerevisiae, UniProt P17106, residues 1-351)
# Chain of UniProt P17106 (whole entry, looked up): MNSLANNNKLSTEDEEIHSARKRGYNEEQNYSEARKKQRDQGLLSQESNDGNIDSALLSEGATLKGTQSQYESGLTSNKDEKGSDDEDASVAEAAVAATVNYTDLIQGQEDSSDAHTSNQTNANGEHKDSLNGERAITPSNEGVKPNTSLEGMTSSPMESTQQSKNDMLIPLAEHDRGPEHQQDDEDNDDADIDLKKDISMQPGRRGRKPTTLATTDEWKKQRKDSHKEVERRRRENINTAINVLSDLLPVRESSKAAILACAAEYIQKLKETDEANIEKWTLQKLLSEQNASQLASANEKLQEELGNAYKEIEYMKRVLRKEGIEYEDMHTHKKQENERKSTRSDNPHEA
# Setting: whole 60-bp probe, lowest competitor level
Sequence,fluorescence intensity [a.u.]
CAGTCTGATTGCCATCACGTGATGGTAACGTAAGTCGTCTTGATTCGCTTGACGCTGCTG,10500
GTCTTGTCTCATTGTATCGTGGGTGTCCCCACTTCAGTCTTGATTCGCTTGACGCTGCTG,79.7
CAGGAAAAGTCTTTGGTGTTTCCTTCTTTGTACATTGTCTTGATTCGCTTGACGCTGCTG,76.6
AAAGGCCATACCCGTCACAGTCCATCACAGAACCGCGTCTTGATTCGCTTGACGCTGCTG,64.3

# Block 3 — method: RNA Bind-n-Seq; form: RNA; medium: in vitro; concentration: 1 µM; setting: whole 134-nt RNA, ends assumed; with: 150 mM KCl; baseline: input library; direction: higher = stronger binding
# Target: Ras GTPase-activating protein-binding protein 1, RRM domain (G3BP1, Homo sapiens, UniProt Q13283)
# Chain of UniProt Q13283 (whole entry, looked up): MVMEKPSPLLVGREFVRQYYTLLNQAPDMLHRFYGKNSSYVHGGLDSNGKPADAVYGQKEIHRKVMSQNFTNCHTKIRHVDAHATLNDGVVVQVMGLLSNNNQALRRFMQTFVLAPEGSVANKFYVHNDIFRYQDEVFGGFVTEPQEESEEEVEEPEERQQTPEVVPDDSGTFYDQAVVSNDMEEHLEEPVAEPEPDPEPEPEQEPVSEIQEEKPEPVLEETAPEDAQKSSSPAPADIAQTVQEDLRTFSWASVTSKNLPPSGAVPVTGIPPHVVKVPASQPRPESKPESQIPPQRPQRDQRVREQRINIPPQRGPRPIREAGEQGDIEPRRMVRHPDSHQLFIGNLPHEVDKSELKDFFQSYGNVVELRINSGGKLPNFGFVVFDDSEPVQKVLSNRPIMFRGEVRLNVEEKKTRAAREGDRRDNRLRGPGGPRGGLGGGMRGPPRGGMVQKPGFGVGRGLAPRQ
Sequence,log2 enrichment
GGGAGUUCUACAGUCCGACGAUCUGGCCCUGGUGGCAUGCGGGGAGGAAGAGGUGGCCUCAUGGAUCGUGGUGGUCCCGGUGGAAUGUACAGAGGUGGCCGUGGUGGAGACAGUGGAAUUCUCGGGUGUCAAGG,1.51
GGGAGUUCUACAGUCCGACGAUCUCCUGUGCUACACAUCGUAUGUACCGAAUCGGGUUUUUGGGAAAAAAAGGGUUUUUGGGAAAGUAUUAUGUUACGCCGUUCGGAUCUGCAUGGAAUUCUCGGGUGUCAAGG,-0.157
GGGAGUUCUACAGUCCGACGAUCCUGAAGAGUCUGAGGAUGCCCAAUCACAGAGCCAAGCAGAUGAAGAGGAGGAAGAUGAUGAUUUUGGGGUGGAGUACUUGCUUGCCAGGGUGGAAUUCUCGGGUGUCAAGG,-0.0961
GGGAGUUCUACAGUCCGACGAUCCACAGACAACACGCACCCACACAGACACAGAGGGAAGGGGUUGGGAUGGGGACAGGGUGCACAGCAGGGCGGGGCAGGACCCCAGCCCCUUGGAAUUCUCGGGUGUCAAGG,-0.282

# Other studies, line by line
Substance,target,assay,system,conditions,how to read,measurement,result
"PhoQ, residues 284 288 289 292 302 303 TYGVAM","PhoP, residues 12 14 15 18 19 DLLYY (Escherichia coli, UniProt P23836)","Sort-seq, item: YFP reporter",E. coli,"PhoQ-PhoP variant library, with: 10 µM Mg2+","baseline: high Mg2+ state, higher = stronger signaling",fold induction,0.663
